Results from different studies.
Each numbered part is a random draw from the data of one study; scales do not carry over between parts. Positions count from the first letter of the parent shown.
Chain of UniProt P07948 (whole entry, looked up): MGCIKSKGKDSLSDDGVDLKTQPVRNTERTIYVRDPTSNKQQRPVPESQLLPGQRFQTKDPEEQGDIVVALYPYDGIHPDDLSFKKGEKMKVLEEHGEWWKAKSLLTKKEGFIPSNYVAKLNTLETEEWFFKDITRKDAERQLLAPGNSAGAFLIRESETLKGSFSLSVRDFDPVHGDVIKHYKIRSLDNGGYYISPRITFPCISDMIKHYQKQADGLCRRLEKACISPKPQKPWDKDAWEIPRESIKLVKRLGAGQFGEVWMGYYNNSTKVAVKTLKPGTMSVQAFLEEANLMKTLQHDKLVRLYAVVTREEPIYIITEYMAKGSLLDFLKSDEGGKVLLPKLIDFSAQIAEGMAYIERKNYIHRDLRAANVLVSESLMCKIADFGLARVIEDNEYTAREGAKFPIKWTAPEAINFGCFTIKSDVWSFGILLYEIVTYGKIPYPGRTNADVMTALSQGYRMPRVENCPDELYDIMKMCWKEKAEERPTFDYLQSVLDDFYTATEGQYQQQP

Block 1
Organism: VSV pseudotyped with VSV-G
Observed: viral infection
Concentration: concentration not given
Reference: vehicle
Substance | GFP-positive cells [%]
bleomycin sulfate | 145
Sucralfate | 136
maraviroc | 91.1

Block 2
Target: HLA class I histocompatibility antigen, A alpha chain, allele A*80:01 (Homo sapiens, UniProt P04439)
Observed: peptide-MHC binding
Form: peptide
Concentration: concentration not given
Sequence | binding
YTDKIAMSY | active
SLFTEQAFY | active
YCPGTTVTL | inactive
RIEQLYPFA | inactive
FHIVNQESL | inactive
AVGVVCTGL | inactive
KLGEGFKSL | inactive
FRYEFTAPF | inactive

Block 3
Target: CCNB2, cyclin fold, Cln2 fusion (human)
Method: yeast growth competition, sequencing
Medium: yeast
Setting: strong parent motif
Reference: not given
Reading: higher = stronger binding
Starting sequence: viral docking peptide; YKVKRRLVFGADD; partner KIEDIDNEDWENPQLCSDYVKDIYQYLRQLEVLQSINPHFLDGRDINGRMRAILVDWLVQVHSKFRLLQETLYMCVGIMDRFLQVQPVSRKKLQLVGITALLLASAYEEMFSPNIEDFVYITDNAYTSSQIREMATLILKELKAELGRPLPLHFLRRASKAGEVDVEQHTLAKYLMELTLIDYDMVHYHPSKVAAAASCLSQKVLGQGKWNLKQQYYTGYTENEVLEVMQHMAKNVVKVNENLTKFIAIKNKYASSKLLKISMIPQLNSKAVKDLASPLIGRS
Change | normalised enrichment score
YTVKRRLVFGADD [K2T] | 2.36
YKVVRRLVFGADD [K4V] | 0.404
YKVKRRLIFGADD [V8I] | 1.45
YKVKRRLVFGRDD [A11R] | 1.42
YKVKRRQVFGADD [L7Q] | 0.342
YWVKRRLVFGADD [K2W] | 0.626
YKVKRALVFGADD [R6A] | 0.628
YKVWRRLVFGADD [K4W] | 0.522

Mixed results
SMILES | tested on | assay | conditions | how to read | endpoint | result
CCOc1ccc(Nc2c3c(nc4ccccc24)CCC3)cc1 | Leishmania donovani | parasite growth | 20 µM, intracellular, amastigote | – | inhibition | 81%
CC(C)(C)c1cc(C=C(C#N)C#N)cc(Br)c1O | Tyrosine-protein kinase Lyn, isoform B (LYN, Homo sapiens, UniProt P07948) | enzyme activity, inhibitor | 0.5 µM | reference: control | remaining activity | 113%

For quick reference, copied from above (block 2):
Sequence | binding
AVGVVCTGL | inactive
